Results collected from several papers.
Protocols differ between the studies behind these lines. ± marks the error that the study gave. Converted amounts (≈) assume the structure as drawn.

CCCOc1ccc([C@H]2CNC(=O)N2c2ccc3[nH]cnc3c2)cc1 — AUC(0-12h) (non-elderly adults, fasted, plasma; oral, 50 mg twice daily, day 11, oral solution, geometric mean): 413 ng·h/mL
CCCC[C@@H]1NC(=O)[C@@H](NC(=O)[C@H](CCC(=O)O)NC(=O)CNC(=O)CN2CCN(CC(=O)O)CCN(CC(=O)O)CCN(CC(=O)O)CC2)CCCCNC(=O)C[C@@H](C(N)=O)NC(=O)[C@H](C(C)C)NC(=O)[C@@H]2CCCN2C(=O)[C@H](CCCNC(=N)N)NC(=O)CNC(=O)[C@H](Cc2c[nH]c3ccccc23)NC(=O)[C@H](CCCNC(=N)N)NC(=O)[C@@H](Cc2ccccc2)NC(=O)[C@H](Cc2c[nH]cn2)NC(=O)[C@H](CCC(=O)O)NC1=O [indium-111 labelled] — tissue uptake (normal C57 mice, pancreas; intravenous, 0.037 MBq, 2 h): 0.09 ± 0.07 %ID/g
O=C(/C=C/c1ccc(O)c(O)c1/C=C/c1ccc(O)c(O)c1)O[C@H](Cc1ccc(O)c(O)c1)C(=O)O — MRT(0-t) (UPLC-MS/MS; Wistar rat, microcirculation dysfunction model, plasma; oral, 100 mg/kg Salvia miltiorrhiza stem-leaf extract FS): 8.55 ± 1.65 h
N[C@]1(C(=O)O)[C@H]2[C@@H](C[C@@H]1F)[C@@H]2C(=O)O — AUC(0-24 h) (healthy subjects, both sexes, CSF; oral, 10 mg TS-134 single dose, fed, mean): 18.9 ng·h/mL
CCN1C(=O)CNc2ncc(-c3ccc(-c4nc[nH]n4)nc3C)nc21 — AUC(0-12h) (human, plasma; oral, 40 mg once daily, first dose): 1210 ng·h/mL
CC(=O)Nc1ccc(O)cc1 — AUC(0-12 h) (healthy volunteers, both sexes, plasma; oral, 650 mg, day 1): 31200 ng·h/mL
CS(=O)(=O)Nc1ccc(C(=O)O[C@@H](Cc2c(Cl)c[n+]([O-])cc2Cl)c2ccc(OC(F)F)c(OCC3CC3)c2)cc1OCC1CC1 — AUC(0-12h) (human, plasma; inhalation, 2400 µg twice daily, day 1, geometric mean): 11.6 ng·h/mL
CCN1CCN(c2cc3c(cc2F)c(=O)c(C(=O)O)cn3C2CC2)CC1 — CL (broiler chickens Ross, plasma; intravenous and oral, population PK typical value): 13.8 mL/min
COc1cc(Nc2ncc3c(n2)-c2ccc(Cl)cc2C(c2c(F)cccc2OC)=NC3)ccc1C(=O)O — trough concentration (children, UGT1A1 intermediate or poor metabolizers, no grade ≥2 toxicity, plasma; oral, 80 mg/m2, day 4): 2250 ± 1530 nM
CN[C@@H]1[C@H](O)[C@H](NC)[C@H]2O[C@]3(O)[C@H](O[C@@H]2[C@H]1O)O[C@H](C)C[C@H]3NC(=O)Cc1cc(Cl)c(F)cn1 — parent remaining (glutathione conjugation; rat liver S9; 100 µM, 2 h, pH 7.4, added: glutathione 0.2 mM): 98.6%
CCCCC/C=C/C(=O)CCc1ccc(O)c(OC)c1 — amount recovered, maximum (human ileostomy patients, ileal effluent; oral, 5 g TU-100, 4 h, no β-glucuronidase treatment): 1250 ng
CC(C)(Sc1ccncc1-c1ccc(C#N)c2ccccc12)C(=O)O — AUC(0-24) (Japanese male subjects, plasma; oral, 10 mg, single dose, fed, geometric least squares mean): 195 ng·h/mL
Cn1cc(-c2ccc3nnc(Sc4ccc5ncccc5c4)n3n2)cn1 — CLint (CD-1 mouse liver S9, male; 1 µM, added: hydralazine 50 µM, no NADPH): 16.5 ± 4.03 mL/min/kg
CCCC[C@H](NC(=O)CN1CCN(CC(=O)O)CCN(CC(=O)O)CCN(CC(=O)O)CC1)C(=O)N[C@H]1CC(=O)NCCCC[C@@H](C(N)=O)NC(=O)[C@H](Cc2c[nH]c3ccccc23)NC(=O)[C@H](CCCNC(=N)N)NC(=O)[C@@H](Cc2ccccc2)NC(=O)[C@H](Cc2c[nH]cn2)NC1=O [indium-111 labelled] — urinary excretion (B16/F1 melanoma-bearing C57 mouse, female; intravenous, dose not given, 2 h, added: L-lysine co-injection): 76.8 ± 5.35%
CC(C)c1nc(CN(C)C(=O)N[C@H](C(=O)N[C@@H](Cc2ccccc2)C[C@H](O)[C@H](Cc2ccccc2)NC(=O)OCc2cncs2)C(C)C)cs1 — AUC(0-24) (HPLC-MS/MS; healthy volunteers, plasma; oral, 100 mg once daily, median, added: atazanavir 300 mg): 7360 ng·h/mL
O=C1Nc2ccccc2C(=O)CCc2ccccc21 — kinetic solubility (nephelometry; aqueous buffer; 30 min, pH 6.5): 50 to 100 µg/mL (≈ 199 to 398 µM)
COc1ccc2c(c1OCc1ccccc1)C[C@@H](C(=O)O)N(C(=O)C(c1ccccc1)c1ccccc1)C2 — Vd (male Sprague-Dawley rat, plasma; intravenous, 1 mg/kg): 0.74 L/kg
Cn1cncc1-c1c(F)cncc1NC(=O)c1c(N)nn2cc(F)cnc12 — Cav over IC90 ratio (human patients, plasma; oral, 180 mg once daily, steady state; relative to: in vitro pCHK1 IC90): ~30 fold
CO/N=C1\C[C@]2(C[C@@H]3C[C@@H](C/C=C(\C)C[C@@H](C)/C=C/C=C4\CO[C@@H]5[C@H](O)C(C)=C[C@@H](C(=O)O3)[C@]45O)O2)O[C@H](/C(C)=C/C(C)C)[C@H]1C — elimination half-life (HPLC, non-compartmental; Corriedale lambs, parasitized, plasma; subcutaneous, 0.2 mg/kg): 134 h
C=CC(=O)Nc1cc(Nc2nccc(-c3cn(C)c4ccccc34)n2)c(OC)cc1N(C)CCN(C)C — MRT(0-t) (Sprague-Dawley rat, male, plasma; oral, 10 mg/kg): 8.04 ± 1.1 h
CC(C)C[C@H](NC(=O)[C@H](CCc1ccccc1)NC(=O)CN1CCOCC1)C(=O)N[C@@H](Cc1ccccc1)C(=O)N[C@@H](CC(C)C)C(=O)[C@@]1(C)CO1 — Vz (LC-MS; human, plasma; intravenous push, 15 mg/m^2): 192 L
N#Cc1ccc2c(c1)C(=O)CCc1ccccc1C(=O)N2 — kinetic solubility (nephelometry; aqueous buffer; 30 min, pH 6.5): 25 to 50 µg/mL (≈ 90.5 to 181 µM)
CNC[C@H](O)[C@@H](O)[C@H](O)[C@H](O)CO.CNC[C@H](O)[C@@H](O)[C@H](O)[C@H](O)CO.O=C([O-])CN(CCN(CC(=O)[O-])CC(=O)O)CCN(CC(=O)O)C(COCc1ccccc1)C(=O)[O-].[Gd+3] (stereo not drawn) — T1 relaxivity r1 (MRI at 9.4 T; saline; 37 °C, per Gd): 4.9 ± 0.1 mM⁻¹ s⁻¹
c1ccc(-c2ccc(-c3nc4ccccc4[nH]3)cc2)cc1 — maximum solubility (0.1 M sodium acetate with 0.01% Triton X-100; pH 5.5): 10 µM
Cc1c2c(n(-c3ccc(F)cc3Cl)c1-c1ccc(OS(=O)(=O)CCC(F)(F)F)cc1)CCN(N1CCCCC1)C2=O — plasma concentration (LC-MS/MS; cynomolgus monkey 4, plasma; intravenous infusion, 0.6 mg/kg, 90 min, total concentration mid-point of PET): 275 nM
Cc1cc(C(=O)NC(C)(C)COc2cccc3c2C(N)=NS(=O)(=O)N3)cc(C)n1 — half-life (female Sprague-Dawley rat, plasma; oral, 30 mg/kg, single dose): 0.774 h
CCCCCCCCCCCCCCCCCCOP(=O)([O-])OC1CC[N+](C)(C)CC1 — terminal half-life (rhesus monkey, male, cerebrospinal fluid; oral, 7 mg/kg, single dose): > 240 h
O=C(O)[C@H](c1ccccc1Cl)N1CCc2sccc2C1 — deviation from nominal (HPLC-MS/MS; feline EDTA plasma; 24 h, -80 °C, storage stability): -3%
Cc1nc(-c2ccc(OCC(C)C)c(C#N)c2)sc1C(=O)O — AUC(0-24) (adults with gout, plasma; oral, 40 mg, added: verinurad 10 mg): 3070 ng·h/mL
Cn1c(-c2ccc(C(N)=O)cc2F)nnc1C(C)(C)Oc1c(F)cc(Cl)cc1F — half-life median (healthy young Japanese subjects, plasma; oral, 10 mg once daily, day 18, 14 days dosing): 23 h
CCCC[C@H](NC(C)=O)C(=O)N[C@H]1CCC(=O)NC[C@@H](C(=O)N[C@@H](Cc2c[nH]c3ccccc23)C(N)=O)NC(=O)[C@H](CCCNC(=N)N)NC(=O)[C@@H](Cc2ccccc2)NC(=O)[C@H](Cc2c[nH]cn2)NC1=O — AUC(0-last) (beagle dog, female, plasma; subcutaneous, 40.0 mg/kg daily, day 1): 3610 ng·h/mL
CCNC(=O)c1cc2c(-c3cc(N4CCCS4(=O)=O)ccc3Oc3ccc(F)cc3F)cn(C)c(=O)c2[nH]1 — oral bioavailability (Sprague-Dawley rat, plasma; oral vs intravenous, 3 mg/kg oral, 1 mg/kg i.v.): 1.2%
C[C@@H](c1ncncc1F)[C@](O)(Cn1cncn1)c1ccc(F)cc1F — trough concentration (patients, hematological disorders, CYP2C19 PM with PPI, plasma; 200 mg, 12 h, steady state, median, combined score 5): 5830 ng/mL
O=S(=O)(c1cc(F)c(O)c2ncccc12)C1CCCC1 — free concentration (rat Sprague-Dawley male, brain; oral, 10 mg/kg, 4 h): 12.8 nM
O=C1NC(=O)[C@@H](c2cn3c4c(cccc24)CCC3)[C@@H]1c1c[nH]c2ccccc12 — AUC(0-12h) (human, plasma; oral, 120 mg, steady state, range limit, added: topotecan intravenous): 2700 to 50300 ng·h/mL
CNCCCC1(c2ccc(F)cc2)OCc2cc(C#N)ccc21 (stereo not drawn) — time fetal brain level decreasing (CD-1 mouse, pregnant E14 and E18, fetal brain; intraperitoneal, 20 mg/kg citalopram maternal): 2.5 h

Repeated from above:
O=C1Nc2ccccc2C(=O)CCc2ccccc21 — kinetic solubility (nephelometry; aqueous buffer; 30 min, pH 6.5): 50 to 100 µg/mL (≈ 199 to 398 µM)
COc1ccc2c(c1OCc1ccccc1)C[C@@H](C(=O)O)N(C(=O)C(c1ccccc1)c1ccccc1)C2 — Vd (male Sprague-Dawley rat, plasma; intravenous, 1 mg/kg): 0.74 L/kg
Cn1cncc1-c1c(F)cncc1NC(=O)c1c(N)nn2cc(F)cnc12 — Cav over IC90 ratio (human patients, plasma; oral, 180 mg once daily, steady state; relative to: in vitro pCHK1 IC90): ~30 fold
